Measurements of several laboratories.
Parts stem from different laboratories: compare values within a part only.

Study 1 — technique: aptamer microarray, sandwich; form: DNA with 2'F-ANA; matrix: in vitro; concentration: 200 nM; together with: Cy3 exosite-II aptamer, 400 nM; reading: higher = stronger binding; sequence: GGTTGGTGTGGTTGG
Target: Prothrombin, mature alpha-thrombin (F2, Homo sapiens, UniProt P00734)
Setting: whole 15-mer aptamer, many near background
Modification	mean fluorescence intensity
2'F-ANA at 2 3 4 8 9 10 13 15	213 a.u.
2'F-ANA at 1 3 4 14	74.5 a.u.
2'F-ANA at 2 3 4 6 11 15	486 a.u.
2'F-ANA at 1 2 5 8 9 10 11 15	51.2 a.u.
2'F-ANA at 7 11 12 15	810 a.u.
2'F-ANA at 1 2 6 9 10 12 13	56.9 a.u.
2'F-ANA at 4 5 7 8 9 10 13 14 15	46.3 a.u.
2'F-ANA at 2 3 4 5 8	123 a.u.
2'F-ANA at 2 5 7 8 9 11 15	68.8 a.u.
2'F-ANA at 1 6 7 8 11 12	335 a.u.
2'F-ANA at 1 3 6 7 8 14	107 a.u.
2'F-ANA at 11 13 14 15	176 a.u.
2'F-ANA at 1 3 5 6 9 11 12 13 14 15	80.2 a.u.
2'F-ANA at 1 2 3 7 9 10 12 13	84.9 a.u.
2'F-ANA at 5 6 7 8 10 11 12 13 14 15	75.7 a.u.
2'F-ANA at 1 3 7 8 9 10 11 14 15	63.1 a.u.
2'F-ANA at 2 6 7 10 11 12 15	129 a.u.
2'F-ANA at 1 2 3 6 7 8 9 10 11 12 14 15	63.1 a.u.
2'F-ANA at 1 5 6 7 10 13 15	49.1 a.u.
2'F-ANA at 1 4 5 6 7 9 10 12 14 15	49.1 a.u.
2'F-ANA at 5 7 11 13	93.4 a.u.
2'F-ANA at 1 4 6 7 12 14 15	57.8 a.u.
2'F-ANA at 1 3 5 6 7 11 13	53.4 a.u.

Study 2 — technique: RNA Bind-n-Seq; form: RNA; matrix: in vitro; concentration: 365 nM; baseline: no-protein control; reading: higher = stronger binding
Target: RNA binding protein fox-1 homolog 2, RRM domain, GST-SBP tag (RBFOX2, Homo sapiens, UniProt O43251-10, residues 100-194)
Setting: natural RNA segment, single round, ends assumed
Constant ends, left off below: GGGAGUUCUACAGUCCGACGAUC … UGGAAUUCUCGGGUGCCAA
Sequence	RBNS enrichment (R)
AGAGUAAUAAAUAUACUUGCUUUAAUUCUUAAGCAUAAGUAAACAUGAUAUAAAAAUAUAUGCUGAAUUACUUGUGAAGAAUGCAUUUAAAGCUAUUUUAAAUGUGUUUU	0.474
CUAAGUGGGUCCUUAUGUACACACCACGUUCACACACACACAGAGGGACCACGUGUGCACGCAUGACCGUGUGGGUGGCGGCGUUUGCUGUGAACCACGCUCAGGCCACA	1.72
AUGGGUACAGAACAGUUUUGGAAUGAACAUUGCCAGUGCUACAAUUGCACUAGUGGGGACUGCUUUUCUCUCACUAAAUAUAGCAGUUAAUAUCCAGUCAUUAAGGAGUU	0.53
UGUGCUGAGACAGUUGAUGUGAUGCAAACUAUUCUUGGAGUGUGUUGUUUUCUUUGGCCCAAGGGUAAACUAAAAUACCUGUGAACUGCAAACUUGCUUGUGAUUGACUU	2.97
UCUCCUUCCCACUGUCCUUUCUCCAGGCCCUCAGAUGGCACAUUAGGGUGGGCGUGCUGCGGGUGGGUAUCCCACCUCCAGCCCACAGUGCUCAGUUGUACUUUUUAUUA	0.372
AGGCCUGGGCCAUUGUCCUCAUCCUGUAGUCAGGGAUCAGGCAUGGGUUUUGAUUUCAGUUUUCCCCCUUUCUCUGCCCUGGGGGCUGGGCUCCUUAUUGCUGCUUAGGC	0.556
GUGCUUGGAUCAGGAGAGGAUACCUCAGUGGUUAAGGUUCUGAUGGACGCACAUAUACAUAGAUGUACUCACUUAUCUAUGGUACAGAUGGGUGGGGAAGAGGUUGCUCU	0.434
ACAUUUUAGGGGCAUGGUUAAUACCUGAGAUUUUUACUCAGUAAAUCCUGAUGGUUACUGUGUGUAAAAUAUCUUUAAGUAGGAUUGAAGGCCUCUGUGGGGGAAUAAAA	0.593

Study 3 — technique: protein binding microarray; form: double-stranded DNA, one strand shown; matrix: in vitro; concentration: not given; baseline: not given; reading: higher = stronger binding
Target: Histone acetyltransferase KAT6A, both winged helices, GST fusion (KAT6A, Homo sapiens, UniProt Q92794, residues 1-181)
Setting: 8-mer, flanks averaged, mean of 2 arrays, mostly near background
Target sequence (chain): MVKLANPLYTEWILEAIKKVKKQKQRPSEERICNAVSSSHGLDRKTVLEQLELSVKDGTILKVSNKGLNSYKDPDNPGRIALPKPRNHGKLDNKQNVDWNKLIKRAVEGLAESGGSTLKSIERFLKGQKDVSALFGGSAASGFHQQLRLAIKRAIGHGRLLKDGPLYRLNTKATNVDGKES
Sequence	E-score
AGCGACCT	-0.00344
GCGCTCAC	0.261
CGATGATA	0.134
AATCAGTA	-0.024
CAAACAGG	-0.157
AACGTGTA	-0.088
CCGAGACG	0.15
CCCGCCCC	0.25
AACGGCTC	0.198
CCGAAAGA	-0.0569
AACCCAAG	-0.168
GGACCGAC	0.133
CTGCAAGC	-0.0721
GCCGCTAC	0.279
GCTGACGA	-0.054
TAAGCGGA	0.0978
GTAAGTAC	0.0633
CTTCGCAA	-0.0252
GCTATGAA	-0.0664
CTCTGTCC	0.0178
CCTACTCC	-0.243
CAATACAA	-0.0907
ATTAAAAA	-0.0216
AGCAAAAA	-0.174
ACCATTCG	-0.0622

Study 4 — technique: RNA Bind-n-Seq; form: RNA; matrix: in vitro; concentration: 200 nM; setting: whole 134-nt RNA, ends assumed; together with: 150 mM KCl; baseline: input library; reading: higher = stronger binding
Target: Ras GTPase-activating protein-binding protein 1, full length (G3BP1, Homo sapiens, UniProt Q13283)
Sequence of UniProt Q13283 (whole entry, looked up): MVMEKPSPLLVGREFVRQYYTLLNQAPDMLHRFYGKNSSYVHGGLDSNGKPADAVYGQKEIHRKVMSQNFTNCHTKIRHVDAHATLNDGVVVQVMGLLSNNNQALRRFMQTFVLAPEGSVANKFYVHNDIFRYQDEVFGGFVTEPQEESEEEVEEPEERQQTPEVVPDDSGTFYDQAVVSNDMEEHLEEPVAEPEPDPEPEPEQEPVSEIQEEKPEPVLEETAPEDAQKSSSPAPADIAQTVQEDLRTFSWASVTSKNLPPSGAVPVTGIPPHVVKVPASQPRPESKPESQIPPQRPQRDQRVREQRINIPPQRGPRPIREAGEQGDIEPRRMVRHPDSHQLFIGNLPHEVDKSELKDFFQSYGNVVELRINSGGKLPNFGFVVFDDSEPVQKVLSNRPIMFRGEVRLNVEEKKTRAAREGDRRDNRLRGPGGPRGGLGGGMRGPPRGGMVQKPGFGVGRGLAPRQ
Constant ends, left off below: GGGAGUUCUACAGUCCGACGAUC … UGGAAUUCUCGGGUGUCAAGG
Sequence	log2 enrichment
UUAGAAGAAGUGGAAAGGAAAAAACGCCAAAGGGAGUUGGAAAUUGAAGAACGAGAACGGCGUAGAGAGGAAGAGAGAAGACUUGGCGAU	0.573
AAGUCCUGUGCUACACAUCGUAUGUACCGAAUCGGGGUGGGGAAAGGGGAAAGGGGAAAGUAUUAUGUUACGCCGUUCGGAUCUGCACUU	0.921
AAGUCCUGUGCUACACAUCGUAUGUACCGAAUCGGGUGGGAAAAAGGGUUUUUGGGAAAGUAUUAUGUUACGCCGUUCGGAUCUGCACUU	0.331
CACAGACAACACGCACCCACACAGACACAGAGGGAAGGGGUUGGGAUGGGGACAGGCUGCACAGCAGGGCGGGGUAGGACCCCAGCCCCU	1.68
UGGCCCUGGUGGAAUGCGGGGAGGAAGAGGUGGCCUCAUGGAUCGUGGUGGUCCCGGUGGAAUGUUCAGAGGUGGCCGUGGUGGAGACAG	0.163
UCCUGUGCUACACAUCGUAUGUACCGAAUCGGGGUUUUUGGGGAAAAAAAGGGGUGGGGAAAGUAUUAUGUUACGCCGUUCGGAUCUGCA	0.764
AGAGAAAAGGAACAGUUCCGUAAGCUCUUUAUUGGUGGCUUAAGCUUUGAAACCACAGAAGAAAGUUUGAGGAACUACUACGAACAAUGG	-1.92
UGGCCCUGGAGGCAUGCGGGGAGGAAGAGGUGGCCUCAUGGAUCGUGGUGGUCCCGGUGGAAUGUUCAGAGGUGGCCGUGGUGGAGACAG	0.105
CUGUGCUACACAUCGUAUGUACCGAAUCGGGGAAAAAAAGGAAAAAAAGGGGAAAAAAAGGAAAGUAUUAUGUUACGCCGUUCGGAUCUG	-0.664

For quick reference, copied from above (study 4):
Sequence	log2 enrichment
CACAGACAACACGCACCCACACAGACACAGAGGGAAGGGGUUGGGAUGGGGACAGGCUGCACAGCAGGGCGGGGUAGGACCCCAGCCCCU	1.68
AAGUCCUGUGCUACACAUCGUAUGUACCGAAUCGGGUGGGAAAAAGGGUUUUUGGGAAAGUAUUAUGUUACGCCGUUCGGAUCUGCACUU	0.331
AAGUCCUGUGCUACACAUCGUAUGUACCGAAUCGGGGUGGGGAAAGGGGAAAGGGGAAAGUAUUAUGUUACGCCGUUCGGAUCUGCACUU	0.921
UGGCCCUGGUGGAAUGCGGGGAGGAAGAGGUGGCCUCAUGGAUCGUGGUGGUCCCGGUGGAAUGUUCAGAGGUGGCCGUGGUGGAGACAG	0.163
UUAGAAGAAGUGGAAAGGAAAAAACGCCAAAGGGAGUUGGAAAUUGAAGAACGAGAACGGCGUAGAGAGGAAGAGAGAAGACUUGGCGAU	0.573
CUGUGCUACACAUCGUAUGUACCGAAUCGGGGAAAAAAAGGAAAAAAAGGGGAAAAAAAGGAAAGUAUUAUGUUACGCCGUUCGGAUCUG	-0.664
UCCUGUGCUACACAUCGUAUGUACCGAAUCGGGGUUUUUGGGGAAAAAAAGGGGUGGGGAAAGUAUUAUGUUACGCCGUUCGGAUCUGCA	0.764
AGAGAAAAGGAACAGUUCCGUAAGCUCUUUAUUGGUGGCUUAAGCUUUGAAACCACAGAAGAAAGUUUGAGGAACUACUACGAACAAUGG	-1.92
UGGCCCUGGAGGCAUGCGGGGAGGAAGAGGUGGCCUCAUGGAUCGUGGUGGUCCCGGUGGAAUGUUCAGAGGUGGCCGUGGUGGAGACAG	0.105
